Measured values pooled from the literature.
Numbered parts are unrelated; each lists some results of a single study. Positions count from the first letter of the parent shown.

Set 1
Target: DDIT3, bZIP domain (human)
Method: DHFR protein complementation
Matrix: yeast
Notes: single substitutions, most at no-binding floor
Baseline: wild-type JUN-FOS pair
Reading: higher = stronger binding
Quantity: binding fitness
Starting sequence: JUN, bZIP domain (human); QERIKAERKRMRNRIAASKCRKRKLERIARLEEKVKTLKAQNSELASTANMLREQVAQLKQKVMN; partner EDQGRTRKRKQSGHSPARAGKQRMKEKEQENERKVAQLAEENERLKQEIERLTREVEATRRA
Substitution = L38W; value = -1.1 natural log
Substitution = E44A; value = 0.0524 natural log
Substitution = L59W; value = -0.326 natural log
Substitution = L59R; value = -0.547 natural log
Substitution = R53W; value = -1.12 natural log
Substitution = E54N; value = -0.0701 natural log
Substitution = R53K; value = 0.00703 natural log
Substitution = A29L; value = -0.195 natural log
Substitution = S43Q; value = 0.162 natural log
Substitution = K36T; value = -0.102 natural log
Substitution = N42E; value = -1.34 natural log
Substitution = R53M; value = -0.356 natural log
Substitution = I28A; value = -0.00229 natural log
Substitution = K34Y; value = -0.0947 natural log
Substitution = L59A; value = 0.0609 natural log
Substitution = K34W; value = 0.00026 natural log
Substitution = M51V; value = -0.0644 natural log
Substitution = V35Q; value = -0.33 natural log
Substitution = A57K; value = 0.0463 natural log
Substitution = S47N; value = 0.0898 natural log
Substitution = K34M; value = 0.0418 natural log
Substitution = V56H; value = -0.351 natural log
Substitution = E32I; value = -0.279 natural log
Substitution = Q41N; value = -0.44 natural log
Substitution = V35F; value = 0.0257 natural log

Set 2
Target: UBE2M UBC core domain (UniProt P61081)
Chain of UniProt P61081 (whole entry, looked up): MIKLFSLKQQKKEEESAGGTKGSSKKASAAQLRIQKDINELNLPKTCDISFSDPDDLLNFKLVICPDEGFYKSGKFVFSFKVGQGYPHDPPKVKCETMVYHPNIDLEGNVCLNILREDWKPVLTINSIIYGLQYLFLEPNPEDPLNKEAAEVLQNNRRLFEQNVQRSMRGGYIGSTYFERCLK
Method: yeast two-hybrid
Matrix: yeast
Notes: mostly zero background
Baseline: not given
Reading: higher = stronger interaction
Quantity: lacZ reporter activity
B1: RNF19A RING domain (UniProt Q9NV58); chain ISKQIGDFIECPLCLLRHSKDRFPDIMTCHHRSCVDCLRQYLRIEISESRVNISCPECTERFNPHDIR
B2: MAP3K1 RING domain (UniProt Q13233); chain NSIKDEEEQMCPICLLGMLDEESLTVCEDGCRNKLHHHCMSIWAEECRRNREPLICPLCRSKWRSHDFYS
B3: SH3RF1 RING domain (UniProt Q7Z6J0); chain DESALLDLLECPVCLERLDASAKVLPCQHTFCKRCLLGIVGSRNELRCPECRTLVGSGVEEL
B4: SYTL4 RING domain (UniProt Q96C24); chain RGSQHYSDRTCARCQESLGRLSPKTNTCRGCNHLVCRDCRIQESNGTWRCKVCAKEIELKKAT
B5: RFWD3 RING domain (UniProt Q6PCD5); chain ASMDEEEGDTCTICLEQWTNAGDHRLSALRCGHLFGYRCISTWLKGQVRKCPQCNKKARHSDIVV
B6: RBCK1 RING domain (UniProt Q9BYM8); chain SLVLNTEPAECPVCYSVLAPGEAVVLRECLHTFCRECLQGTIRNSQEAEVSCPFIDNTYSCSGKLLEREIK
B7: MDM4 RING domain (UniProt O15151); chain MEDCQNLLKPCSLCEKRPRDGNIIHGRTGHLVTCFHCARRLKKAGASCPICKKEIQLVIKVF
Sequence = B1 (RNF19A RING domain); value = 0
Sequence = B2 (MAP3K1 RING domain); value = 0
Sequence = FDGDVDPDLKCALCHKVLEDPLTTPCGHVFCAGCVLPWVVQEGSCPARCRGRLSAKELN (PDZRN3 RING domain (UniProt Q9UPQ7)); value = 0
Sequence = B3 (SH3RF1 RING domain); value = 0
Sequence = AMYLQENGIDCPKCKFSYALARGGCMHFHCTQCRHQFCSGCYNAFYAKNKC (RNF31 RING domain (UniProt Q96EP0)); value = 0
Sequence = AVPSGLEENLCKICMDSPIDCVLLECGHMVTCTKCGKRMNECPICRQYVIRAVHVF (RFFL RING domain (UniProt Q8WZ73)); value = 0
Sequence = B4 (SYTL4 RING domain); value = 0
Sequence = B5 (RFWD3 RING domain); value = 0
Sequence = B6 (RBCK1 RING domain); value = 0
Sequence = B7 (MDM4 RING domain); value = 0

Set 3
Target: Centromere-binding protein 1, full length, N-terminal tag (CBF1, Saccharomyces cerevisiae, UniProt P17106, residues 1-351)
Chain of UniProt P17106 (whole entry, looked up): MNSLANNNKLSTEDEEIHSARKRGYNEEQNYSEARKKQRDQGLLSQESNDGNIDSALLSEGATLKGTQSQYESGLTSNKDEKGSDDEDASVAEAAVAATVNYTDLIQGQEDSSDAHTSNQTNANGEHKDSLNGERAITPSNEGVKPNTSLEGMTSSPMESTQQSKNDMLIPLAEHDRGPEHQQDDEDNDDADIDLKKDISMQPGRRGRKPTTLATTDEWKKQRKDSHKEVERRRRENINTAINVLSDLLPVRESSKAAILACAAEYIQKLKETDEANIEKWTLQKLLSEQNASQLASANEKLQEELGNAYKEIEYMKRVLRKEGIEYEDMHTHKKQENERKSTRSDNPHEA
Method: protein-binding microarray
Molecule type: double-stranded DNA, one strand shown
Matrix: in vitro
Concentration: 0.8 µM
Notes: whole 60-bp probe, no competitor
Reading: higher = stronger binding
Quantity: fluorescence intensity
Shared flanks, not repeated: … GTCTTGATTCGCTTGACGCTGCTG
Strand = GAATTTGAAGCAATGCACGCCGGTTTTCTTTATTAG; value = 477 a.u.
Strand = GAACGGGCCCCACGGGAGGTGATGGTGCCGCTTTAG; value = 499 a.u.
Strand = CTATCAGGCACACGTGATTCACCTAAACTCGGCTTC; value = 10200 a.u.
Strand = GAAATGCTGCACCCTAACGTGCATGTATATATATAG; value = 567 a.u.
Strand = CTAATGCAAAGTTGACACGTTCAGTTACTATTTTTC; value = 544 a.u.
Strand = GAACAAACCGCAGATTGCGTCACGGTTCTGCGGTAG; value = 705 a.u.
Strand = CTATTTTTTTGTTGGCTCGTGGTTGTTCTCGAATTC; value = 640 a.u.
Strand = GAAAATATATAACATGACGTGAGTGAAGAATTATAG; value = 707 a.u.
Strand = CTAACCGTTCCACGTGACTAGTCCAAGGATTTTTTC; value = 10800 a.u.
Strand = CTAAGTACTTTTCCACGTGTTTCGATTGCCTTTTTC; value = 2190 a.u.
Strand = TGTACGAAGCTATACCACGTTAATATAGTAGTTAGG; value = 550 a.u.
Strand = CTACCCAGGCCCACCAACGTGCGCCCACCGCTATTC; value = 469 a.u.
Strand = CTATAATAAATACATGATGCTAGGTACACAGAATTC; value = 537 a.u.
Strand = TGTACGAAGCTATGTCACAATGTTATAGTAGTTAGG; value = 572 a.u.
Strand = CTACTGGCTTTTCTCCACGTGTCTGCTTGTTGCTTC; value = 2370 a.u.
Strand = CTACGGCGTTACTCGCATGTGCAGATATCAGCGTTC; value = 673 a.u.
Strand = GAATTTAACCGCCGTCACGCTCGTGCAGCGCGATAG; value = 772 a.u.
Strand = GAACTTTGCTCTGGTCACACTAAATAATCGCGCTAG; value = 629 a.u.
Strand = GAATAAAGCAAATCTCACATGAAAACGCTGAAATAG; value = 554 a.u.

Set 4
Target: CCNF, cyclin fold, Cln2 fusion (human)
Method: yeast growth competition, sequencing
Matrix: yeast
Notes: weak parent motif
Baseline: not given
Reading: higher = stronger binding
Quantity: normalised enrichment score
Starting sequence: DBF4 docking peptide (human); DDIVSKLVFDFVE
Substitution = V12A; value = -0.299
Substitution = K6A; value = -0.329
Substitution = F11A; value = -0.208
Substitution = F9A; value = -0.78
Substitution = D2A; value = 0.479
Substitution = I3A; value = 0.115
Substitution = S5A; value = -0.0381

A few entries again (set 2):
Sequence = B2 (MAP3K1 RING domain); value = 0
Sequence = FDGDVDPDLKCALCHKVLEDPLTTPCGHVFCAGCVLPWVVQEGSCPARCRGRLSAKELN (PDZRN3 RING domain (UniProt Q9UPQ7)); value = 0
Sequence = B3 (SH3RF1 RING domain); value = 0
Sequence = AMYLQENGIDCPKCKFSYALARGGCMHFHCTQCRHQFCSGCYNAFYAKNKC (RNF31 RING domain (UniProt Q96EP0)); value = 0
Sequence = AVPSGLEENLCKICMDSPIDCVLLECGHMVTCTKCGKRMNECPICRQYVIRAVHVF (RFFL RING domain (UniProt Q8WZ73)); value = 0
